Measurements of several laboratories.
Numbered parts are unrelated; each lists some results of a single study.

Set 1
Target: Sal-like protein 4, full length isoform A (SALL4, Homo sapiens, UniProt Q9UJQ4, residues 1-1053)
UniProt Q9UJQ4, sequence (whole entry, looked up): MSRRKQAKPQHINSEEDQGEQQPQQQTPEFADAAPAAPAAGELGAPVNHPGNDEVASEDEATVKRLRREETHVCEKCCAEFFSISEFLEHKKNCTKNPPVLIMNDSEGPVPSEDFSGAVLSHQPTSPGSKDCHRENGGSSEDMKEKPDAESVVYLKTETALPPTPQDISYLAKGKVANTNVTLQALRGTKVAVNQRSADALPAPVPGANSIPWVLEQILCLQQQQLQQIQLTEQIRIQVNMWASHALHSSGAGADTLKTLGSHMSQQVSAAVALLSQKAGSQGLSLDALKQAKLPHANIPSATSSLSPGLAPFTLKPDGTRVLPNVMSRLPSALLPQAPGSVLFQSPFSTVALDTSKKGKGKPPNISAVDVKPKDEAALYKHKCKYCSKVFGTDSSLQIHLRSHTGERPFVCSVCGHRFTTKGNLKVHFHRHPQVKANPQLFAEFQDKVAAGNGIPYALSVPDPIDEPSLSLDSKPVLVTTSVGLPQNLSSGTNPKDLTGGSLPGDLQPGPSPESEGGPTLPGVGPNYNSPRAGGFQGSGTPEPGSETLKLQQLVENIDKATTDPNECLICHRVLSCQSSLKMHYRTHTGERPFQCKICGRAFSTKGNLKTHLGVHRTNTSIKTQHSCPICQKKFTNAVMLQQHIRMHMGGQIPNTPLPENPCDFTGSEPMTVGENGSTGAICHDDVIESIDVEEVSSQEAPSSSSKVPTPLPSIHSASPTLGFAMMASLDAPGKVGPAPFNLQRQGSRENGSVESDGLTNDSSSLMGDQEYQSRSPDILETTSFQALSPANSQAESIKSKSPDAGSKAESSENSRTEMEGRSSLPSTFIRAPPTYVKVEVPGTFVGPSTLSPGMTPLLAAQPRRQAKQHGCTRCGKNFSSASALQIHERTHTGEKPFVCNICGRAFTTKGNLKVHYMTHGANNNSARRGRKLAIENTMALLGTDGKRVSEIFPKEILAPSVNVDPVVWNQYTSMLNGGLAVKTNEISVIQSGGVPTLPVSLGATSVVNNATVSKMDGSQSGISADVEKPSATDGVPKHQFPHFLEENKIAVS
Technique: universal PBM
Form: double-stranded DNA, one strand shown
Sample: in vitro
Concentration: 600 nM
Setting: 8-mer, flanks averaged, mean of replicates
Reading: higher = stronger binding
For `CCAGATAC`, the E-score was -0.0652.
With `ATAGATGC` the E-score was 0.0662.
For `AACTAGCG`, the E-score was -0.097.

Set 2
Target: Histone acetyltransferase KAT6A, winged helix 1, GST fusion (KAT6A, Homo sapiens, UniProt Q92794, residues 1-85)
Technique: protein binding microarray
Form: double-stranded DNA, one strand shown
Sample: in vitro
Concentration: not given
Setting: 8-mer, flanks averaged, mean of 2 arrays, mostly near background
Relative to: not given
Reading: higher = stronger binding
Construct (chain): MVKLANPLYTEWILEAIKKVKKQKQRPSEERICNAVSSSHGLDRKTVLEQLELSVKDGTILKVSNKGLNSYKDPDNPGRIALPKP
For `ACGTGCCA`, the E-score was -0.191.
For `AAAGCGAA`, the E-score was 0.0469.
`AAGGGCCT` gave an E-score of -0.124.
`AACTGCGG` gave an E-score of 0.316.

Set 3
Target: Interferon regulatory factor 7, full length, phosphomimetic (IRF7, Homo sapiens, UniProt Q92985, residues 1-503, S101K/S471D/S472D/S475D/S476D/S477D/S483D/S484D/S487D)
UniProt Q92985, sequence (whole entry, unmodified, looked up): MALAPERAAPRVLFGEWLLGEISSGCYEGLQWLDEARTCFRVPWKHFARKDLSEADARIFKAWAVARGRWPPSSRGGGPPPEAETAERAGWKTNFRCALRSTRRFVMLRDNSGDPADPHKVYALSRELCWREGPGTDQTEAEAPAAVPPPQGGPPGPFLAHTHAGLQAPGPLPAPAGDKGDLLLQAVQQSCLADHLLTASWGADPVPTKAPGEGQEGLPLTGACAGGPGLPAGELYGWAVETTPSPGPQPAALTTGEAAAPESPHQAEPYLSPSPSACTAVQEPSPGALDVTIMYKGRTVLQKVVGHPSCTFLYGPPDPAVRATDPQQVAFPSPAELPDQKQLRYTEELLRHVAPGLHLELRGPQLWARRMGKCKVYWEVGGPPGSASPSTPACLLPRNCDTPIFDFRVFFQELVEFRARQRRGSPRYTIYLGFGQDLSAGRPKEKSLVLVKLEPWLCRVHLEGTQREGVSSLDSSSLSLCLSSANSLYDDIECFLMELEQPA
Technique: protein-binding microarray
Form: double-stranded DNA, one strand shown
Sample: in vitro
Concentration: 250 nM
Setting: 60-bp whole probe
With: salmon DNA 0.4 mg/ml
Relative to: random background probes
Reading: higher = stronger binding
`GCCTAGCACTCCATTTTCTAAATGCCCTAGTGCTAGGTCTTGATTCGCTTGACGCTGCTG` gave a log fluorescence of 1.85 z-score.
For `GCCTAGCACTTAGGTTTCCTTTCCCTTGAGTGCTAGGTCTTGATTCGCTTGACGCTGCTG`, the log fluorescence was 4.47 z-score.
For `GCCTAGCACTCATAAATGATATATATCACTGTGCTAGTCTTGATTCGCTTGACGCTGCTG`, the log fluorescence was 0.193 z-score.

Other studies, line by line
`PhoQ, residues 284 288 289 292 302 303 SMYGEC` has a fold induction of 5.54 (PhoP, residues 12 14 15 18 19 STHWV (Escherichia coli, UniProt P23836); Sort-seq, item: YFP reporter; E. coli; PhoQ-PhoP variant library, with: 10 µM Mg2+; relative to: high Mg2+ state, higher = stronger signaling).

A few entries again (set 2):
For `ACGTGCCA`, the E-score was -0.191.
